Measured values collected from several papers.
Each numbered part is a random draw from the data of one study; scales do not carry over between parts. Values joined by “and” are separate records of one study, mostly repeats; a detail may differ.

Block 1 — read-out: enzyme activity; mode: inhibitor; technique: fluorescence
SMILES: NC/C(=C\F)COc1cc(Cn2c(=S)[nH]c(=O)c3[nH]cnc32)cc(C(F)(F)F)c1
MPO: Myeloperoxidase (MPO, Homo sapiens, UniProt P05164)
AOC3: Amine oxidase [copper-containing] 3 (AOC3, Homo sapiens, UniProt Q16853)
UniProt Q16853, sequence (whole entry, looked up): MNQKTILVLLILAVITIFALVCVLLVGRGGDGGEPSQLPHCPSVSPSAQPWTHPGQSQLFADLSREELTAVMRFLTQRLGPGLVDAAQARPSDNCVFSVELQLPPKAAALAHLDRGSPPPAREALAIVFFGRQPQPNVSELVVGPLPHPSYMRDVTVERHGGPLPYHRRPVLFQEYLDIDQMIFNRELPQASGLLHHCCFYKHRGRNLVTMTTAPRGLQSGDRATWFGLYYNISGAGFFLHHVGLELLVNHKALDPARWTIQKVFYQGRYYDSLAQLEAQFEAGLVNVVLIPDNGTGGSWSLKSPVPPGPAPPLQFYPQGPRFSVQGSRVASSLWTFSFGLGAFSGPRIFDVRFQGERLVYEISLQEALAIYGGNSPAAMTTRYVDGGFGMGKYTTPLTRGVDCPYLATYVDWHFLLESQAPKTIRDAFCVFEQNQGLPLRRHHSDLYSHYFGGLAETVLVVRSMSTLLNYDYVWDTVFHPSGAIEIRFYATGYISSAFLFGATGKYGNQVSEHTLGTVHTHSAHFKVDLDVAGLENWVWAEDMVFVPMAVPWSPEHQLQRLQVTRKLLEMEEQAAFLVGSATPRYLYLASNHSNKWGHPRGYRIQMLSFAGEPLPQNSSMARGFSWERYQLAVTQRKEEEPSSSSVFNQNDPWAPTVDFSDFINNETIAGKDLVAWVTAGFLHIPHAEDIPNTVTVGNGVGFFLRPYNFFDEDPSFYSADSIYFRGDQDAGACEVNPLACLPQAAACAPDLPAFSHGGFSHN
target	conditions	inhibition
MPO	1.111 µM	99.6%
MPO	0.1235 µM	94.3%
MPO	15 µM	100%
AOC3	1.5 nM	-8.95% and -3.2% and -2.18% and -3.52%
MPO	61.7 nM	93%
MPO	300 pM	-2.16%
MPO	3.333 µM	101%
AOC3	13.7 nM	-0.236% and -2.87% and -1.47% and 0.311%

Block 2 — technique: KINOMEscan; notes: unit not given; baseline: DMSO
Structure (SMILES): CCOc1ccc2nc(Sc3nc(Nc4ccc(OC)cc4)nc(N4CCOCC4)n3)sc2c1
Target: 1-phosphatidylinositol 3-phosphate 5-kinase (PIKFYVE, Homo sapiens, UniProt Q9Y2I7)
UniProt Q9Y2I7, sequence (whole entry, looked up): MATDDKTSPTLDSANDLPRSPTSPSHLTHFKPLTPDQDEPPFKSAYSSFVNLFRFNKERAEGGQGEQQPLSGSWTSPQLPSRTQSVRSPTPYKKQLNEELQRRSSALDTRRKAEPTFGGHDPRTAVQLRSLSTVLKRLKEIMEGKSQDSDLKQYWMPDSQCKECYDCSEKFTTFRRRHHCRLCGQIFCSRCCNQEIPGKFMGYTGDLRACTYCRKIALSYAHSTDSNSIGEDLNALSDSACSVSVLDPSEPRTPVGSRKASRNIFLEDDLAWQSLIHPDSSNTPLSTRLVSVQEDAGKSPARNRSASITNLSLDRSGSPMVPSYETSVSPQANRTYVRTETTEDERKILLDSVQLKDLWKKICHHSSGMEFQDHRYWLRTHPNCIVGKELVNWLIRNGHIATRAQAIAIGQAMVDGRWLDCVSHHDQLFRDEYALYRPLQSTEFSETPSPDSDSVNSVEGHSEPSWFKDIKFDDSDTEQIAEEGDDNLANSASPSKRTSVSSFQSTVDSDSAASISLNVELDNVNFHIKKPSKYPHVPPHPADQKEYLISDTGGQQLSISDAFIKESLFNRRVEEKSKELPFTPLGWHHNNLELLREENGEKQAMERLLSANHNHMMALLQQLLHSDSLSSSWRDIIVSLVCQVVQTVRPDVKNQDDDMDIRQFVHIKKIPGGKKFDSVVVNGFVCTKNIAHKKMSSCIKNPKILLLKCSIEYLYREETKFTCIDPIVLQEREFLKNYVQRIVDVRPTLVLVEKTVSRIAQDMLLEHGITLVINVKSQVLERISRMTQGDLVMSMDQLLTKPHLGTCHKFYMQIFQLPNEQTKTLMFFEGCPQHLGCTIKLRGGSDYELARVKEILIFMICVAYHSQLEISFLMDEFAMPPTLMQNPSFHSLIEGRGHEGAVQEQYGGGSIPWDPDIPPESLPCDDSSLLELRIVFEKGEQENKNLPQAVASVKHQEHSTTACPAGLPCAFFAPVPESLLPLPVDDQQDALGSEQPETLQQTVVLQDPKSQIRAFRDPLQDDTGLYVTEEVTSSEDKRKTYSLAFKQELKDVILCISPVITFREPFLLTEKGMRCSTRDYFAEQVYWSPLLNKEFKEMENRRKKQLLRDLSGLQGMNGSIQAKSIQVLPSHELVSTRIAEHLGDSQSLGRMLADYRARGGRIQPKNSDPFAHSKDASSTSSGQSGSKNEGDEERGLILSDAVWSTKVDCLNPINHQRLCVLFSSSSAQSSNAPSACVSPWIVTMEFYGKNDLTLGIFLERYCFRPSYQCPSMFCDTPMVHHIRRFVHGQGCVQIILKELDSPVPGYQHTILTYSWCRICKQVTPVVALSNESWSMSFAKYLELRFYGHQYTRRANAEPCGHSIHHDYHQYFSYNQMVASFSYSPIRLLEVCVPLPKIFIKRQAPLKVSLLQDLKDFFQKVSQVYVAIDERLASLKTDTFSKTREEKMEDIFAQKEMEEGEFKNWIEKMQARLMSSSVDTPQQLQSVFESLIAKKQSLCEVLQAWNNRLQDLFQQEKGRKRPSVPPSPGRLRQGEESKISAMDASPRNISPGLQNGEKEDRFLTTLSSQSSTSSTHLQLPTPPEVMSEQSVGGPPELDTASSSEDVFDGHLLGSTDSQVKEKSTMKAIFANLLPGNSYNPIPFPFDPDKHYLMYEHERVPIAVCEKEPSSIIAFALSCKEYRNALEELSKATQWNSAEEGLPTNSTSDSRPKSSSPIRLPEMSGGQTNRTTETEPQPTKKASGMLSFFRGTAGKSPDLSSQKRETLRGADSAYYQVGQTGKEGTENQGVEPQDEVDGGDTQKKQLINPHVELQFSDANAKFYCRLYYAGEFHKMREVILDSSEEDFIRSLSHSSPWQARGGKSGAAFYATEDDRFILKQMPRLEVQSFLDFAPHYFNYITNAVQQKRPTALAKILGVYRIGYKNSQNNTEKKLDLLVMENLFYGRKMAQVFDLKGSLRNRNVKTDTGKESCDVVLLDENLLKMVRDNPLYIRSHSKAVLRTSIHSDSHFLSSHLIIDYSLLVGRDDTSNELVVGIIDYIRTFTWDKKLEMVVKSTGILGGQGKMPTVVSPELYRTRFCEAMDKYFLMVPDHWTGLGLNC
conditions	remaining binding
41.2 nM	0.799 and 0.954
370 nM	0.192 and 0.213
0.503 nM	1.05 and 0.98
13.6 nM	0.815 and 0.813
9900 nM	0.00285 and 0.00278
3330 nM	0.00633 and 0.008
0.168 nM	0.696 and 0.855
367 nM	0.198 and 0.194

Block 3 — mode: degrader
SMILES: Cn1cc(-c2cccc(CN3CCC4(CC3)COc3c4ccc4c3CN([C@H]3CCC(=O)NC3=O)C4=O)c2)cn1
Ikzf2/Crbn I391V: Ikzf2/Crbn (Mus musculus, UniProt P81183+Q8C7D2, I391V)
UniProt Q8C7D2, sequence (whole entry, unmodified, looked up): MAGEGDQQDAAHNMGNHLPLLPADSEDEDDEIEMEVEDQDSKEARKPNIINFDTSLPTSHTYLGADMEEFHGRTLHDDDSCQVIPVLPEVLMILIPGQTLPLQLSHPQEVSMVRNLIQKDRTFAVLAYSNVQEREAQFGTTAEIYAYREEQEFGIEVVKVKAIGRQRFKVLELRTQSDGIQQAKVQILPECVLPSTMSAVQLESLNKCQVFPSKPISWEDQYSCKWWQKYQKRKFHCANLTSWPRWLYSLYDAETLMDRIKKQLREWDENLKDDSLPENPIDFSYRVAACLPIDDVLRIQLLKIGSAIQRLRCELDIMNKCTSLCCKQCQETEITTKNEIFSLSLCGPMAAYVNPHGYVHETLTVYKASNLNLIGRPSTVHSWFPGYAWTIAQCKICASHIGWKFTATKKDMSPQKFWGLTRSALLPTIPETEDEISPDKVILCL
UniProt P81183, sequence (whole entry, unmodified, looked up): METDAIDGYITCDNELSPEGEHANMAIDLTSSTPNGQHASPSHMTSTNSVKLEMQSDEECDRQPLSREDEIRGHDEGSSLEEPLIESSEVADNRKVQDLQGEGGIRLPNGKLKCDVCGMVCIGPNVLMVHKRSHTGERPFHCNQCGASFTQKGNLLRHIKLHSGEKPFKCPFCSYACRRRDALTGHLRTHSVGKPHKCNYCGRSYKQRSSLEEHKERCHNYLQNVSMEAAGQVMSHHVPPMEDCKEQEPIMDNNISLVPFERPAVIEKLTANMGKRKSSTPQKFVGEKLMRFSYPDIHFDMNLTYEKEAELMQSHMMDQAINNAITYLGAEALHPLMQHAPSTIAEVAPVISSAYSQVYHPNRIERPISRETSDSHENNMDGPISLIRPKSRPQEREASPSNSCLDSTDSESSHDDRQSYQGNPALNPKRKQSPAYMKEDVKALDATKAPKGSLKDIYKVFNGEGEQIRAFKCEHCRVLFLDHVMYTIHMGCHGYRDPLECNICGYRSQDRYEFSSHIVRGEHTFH
CRBN/Zinc finger protein Helios: CRBN/Zinc finger protein Helios (Homo sapiens, UniProt Q96SW2+Q9UKS7)
UniProt Q9UKS7, sequence (whole entry, looked up): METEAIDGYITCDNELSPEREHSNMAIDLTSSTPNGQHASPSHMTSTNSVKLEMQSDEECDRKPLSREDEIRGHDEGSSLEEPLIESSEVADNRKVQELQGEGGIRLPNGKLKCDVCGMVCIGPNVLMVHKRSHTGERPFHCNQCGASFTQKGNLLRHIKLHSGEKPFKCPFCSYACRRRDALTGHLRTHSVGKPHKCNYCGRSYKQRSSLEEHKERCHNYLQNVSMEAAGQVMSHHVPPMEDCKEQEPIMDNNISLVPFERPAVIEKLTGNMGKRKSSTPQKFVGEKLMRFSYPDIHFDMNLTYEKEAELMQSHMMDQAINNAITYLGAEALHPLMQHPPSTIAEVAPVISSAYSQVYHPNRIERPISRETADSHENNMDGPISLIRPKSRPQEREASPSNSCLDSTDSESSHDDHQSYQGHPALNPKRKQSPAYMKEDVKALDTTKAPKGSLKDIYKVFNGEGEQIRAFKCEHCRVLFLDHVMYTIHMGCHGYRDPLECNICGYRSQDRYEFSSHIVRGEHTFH
UniProt Q96SW2, sequence (whole entry, looked up): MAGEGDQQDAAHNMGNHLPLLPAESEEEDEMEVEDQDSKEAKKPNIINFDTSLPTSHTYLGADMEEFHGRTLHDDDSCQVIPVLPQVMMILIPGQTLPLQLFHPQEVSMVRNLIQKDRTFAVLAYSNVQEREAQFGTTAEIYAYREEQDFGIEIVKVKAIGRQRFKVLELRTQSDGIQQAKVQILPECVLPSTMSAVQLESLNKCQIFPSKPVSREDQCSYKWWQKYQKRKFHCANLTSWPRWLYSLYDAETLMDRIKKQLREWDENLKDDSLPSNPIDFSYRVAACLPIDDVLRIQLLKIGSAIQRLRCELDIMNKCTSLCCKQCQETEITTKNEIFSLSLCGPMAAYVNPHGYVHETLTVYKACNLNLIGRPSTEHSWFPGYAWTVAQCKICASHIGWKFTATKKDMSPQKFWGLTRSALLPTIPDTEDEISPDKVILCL
target	test	system	conditions	protein remaining
Ikzf2/Crbn I391V		Crbn I391V mouse, spleen	100 mg/kg, 24 h	18% and 16% and 19% and 9%
CRBN/Zinc finger protein Helios	HiBiT	HEK293	0.1524 nM, 0.5 h	89.8% and 103%
CRBN/Zinc finger protein Helios	HiBiT	HEK293	12.35 nM, 1 h	54.6% and 56.2%
Ikzf2/Crbn I391V		Crbn I391V mouse, thymus	30 mg/kg, 24 h	54% and 6% and 52% and 55%
CRBN/Zinc finger protein Helios	HiBiT	HEK293	1000 nM	8.18% and 9.83%
CRBN/Zinc finger protein Helios	HiBiT	HEK293	1.372 nM	45.2% and 48.7%
CRBN/Zinc finger protein Helios	HiBiT	HEK293	0.01694 nM, 0.5 h	93.2% and 93.1%
CRBN/Zinc finger protein Helios	HiBiT	HEK293	4.115 nM, 0.5 h	85.1% and 82.6%
CRBN/Zinc finger protein Helios	HiBiT	HEK293	111.1 nM	8.8% and 10.5%
CRBN/Zinc finger protein Helios	HiBiT	HEK293	4.115 nM	23.5% and 26.2%

Mixed results — organism: Leishmania donovani
SMILES	test	system	conditions	measurement	result
c1ccc2c(NCCCN3CCOCC3)c3c(nc2c1)CCC3		DD8, promastigotes	16.7 µM	inhibition	inactive
O=C(CN1CCOCC1)Nc1c2c(nc3ccccc13)CCC2		DD8, promastigotes	16.7 µM	inhibition	inactive
Clc1ccc(Nc2c3c(nc4ccccc24)CCC3)cc1	parasite growth	THP-1	intracellular, amastigote	IC50	11.5 µM
CC(=O)c1cccc(Nc2c3c(nc4ccccc24)CCC3)c1	parasite growth	THP-1	intracellular, amastigote	IC50	8.54 µM

A few entries again (block 2):
conditions	remaining binding
41.2 nM	0.799 and 0.954
367 nM	0.198 and 0.194
13.6 nM	0.815 and 0.813
370 nM	0.192 and 0.213
